Results gathered from unrelated publications.
Parts stem from different laboratories: compare values within a part only.

Block 1
Target: Sal-like protein 4, full length isoform B (SALL4, Homo sapiens, UniProt Q9UJQ4-2, residues 1-616)
Technique: universal PBM
Molecule type: double-stranded DNA, one strand shown
Medium: in vitro
Concentration: not given
Notes: 8-mer, flanks averaged, mean of replicates
Reading: higher = stronger binding
The E-score of `ACCGCGCT` is reported as -0.18.
With `CGATCGAA` the E-score was -0.123.
For `CTCCTCAC`, the E-score was -0.113.
`CGGGTGTC` gave an E-score of -0.277.
For `AAATTTCT`, the E-score was 0.234.

Block 2
Target: Prothrombin, mature alpha-thrombin (F2, Homo sapiens, UniProt P00734)
Technique: aptamer microarray, sandwich
Molecule type: DNA with 2'F-ANA
Medium: in vitro
Concentration: 200 nM
Notes: whole 15-mer aptamer, many near background
Together with: Cy3 exosite-II aptamer, 400 nM
Reading: higher = stronger binding
`GGTTGGTGTGGTTGG (2'F-ANA at 1 2 4 5 6 8 11 12 14)` — result for “mean fluorescence intensity”: 49.3 a.u.
`GGTTGGTGTGGTTGG (2'F-ANA at 1 5 6 13 15)`: “mean fluorescence intensity” 52.9 a.u.
Under “mean fluorescence intensity”, `GGTTGGTGTGGTTGG (2'F-ANA at 2 3 4 6 7 10 13 14)` is recorded as 171 a.u.

Further values, each from its own experiment
CBF1 full length, N-terminal tag: Centromere-binding protein 1, full length, N-terminal tag (CBF1, Saccharomyces cerevisiae, UniProt P17106, residues 1-351)
Sequence of UniProt P17106 (whole entry, looked up): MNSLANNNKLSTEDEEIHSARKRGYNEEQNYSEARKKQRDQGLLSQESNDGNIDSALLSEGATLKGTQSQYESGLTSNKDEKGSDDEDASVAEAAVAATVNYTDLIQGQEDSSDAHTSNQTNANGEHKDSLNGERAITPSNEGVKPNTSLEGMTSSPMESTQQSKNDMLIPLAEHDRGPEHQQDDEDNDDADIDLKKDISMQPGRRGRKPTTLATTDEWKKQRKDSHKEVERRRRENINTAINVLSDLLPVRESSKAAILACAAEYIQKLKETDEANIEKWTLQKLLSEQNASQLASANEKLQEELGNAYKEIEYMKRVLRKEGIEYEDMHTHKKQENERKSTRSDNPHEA
`CCTAACTACTATAATCACCAGTAATAGCTTCGTACAGTCTTGATTCGCTTGACGCTGCTG` has a fluorescence intensity of 510 a.u. (CBF1 full length, N-terminal tag; protein-binding microarray; double-stranded DNA, one strand shown, in vitro; 0.8 µM, whole 60-bp probe, no competitor; higher = stronger binding).
`PhoQ, residues 284 288 289 292 302 303 ASSHFY` has a fold induction of 11.2 (PhoP, residues 12 14 15 18 19 LHSVW (Escherichia coli, UniProt P23836); Sort-seq, refers to: YFP reporter; E. coli; PhoQ-PhoP variant library, together with: 10 µM Mg2+; reference: high Mg2+ state, higher = stronger signaling).
For `CTACAGTTTTCCTATCTGTCACCTTTCTAGGTCTTCGTCTTGATTCGCTTGACGCTGCTG`, the fluorescence intensity was 562 a.u. (CBF1 full length, N-terminal tag; protein-binding microarray; double-stranded DNA, one strand shown, in vitro; 0.8 µM, whole 60-bp probe, no competitor; higher = stronger binding).

Repeated from above (further values, each from its own experiment):
For `CTACAGTTTTCCTATCTGTCACCTTTCTAGGTCTTCGTCTTGATTCGCTTGACGCTGCTG`, the fluorescence intensity was 562 a.u. (CBF1 full length, N-terminal tag; protein-binding microarray; double-stranded DNA, one strand shown, in vitro; 0.8 µM, whole 60-bp probe, no competitor; higher = stronger binding).
